Assay results gathered from unrelated publications.
Lines come from different studies, so protocols differ. ± marks the error that the study gave.
Sequence of UniProt Q8N568 (whole entry, looked up): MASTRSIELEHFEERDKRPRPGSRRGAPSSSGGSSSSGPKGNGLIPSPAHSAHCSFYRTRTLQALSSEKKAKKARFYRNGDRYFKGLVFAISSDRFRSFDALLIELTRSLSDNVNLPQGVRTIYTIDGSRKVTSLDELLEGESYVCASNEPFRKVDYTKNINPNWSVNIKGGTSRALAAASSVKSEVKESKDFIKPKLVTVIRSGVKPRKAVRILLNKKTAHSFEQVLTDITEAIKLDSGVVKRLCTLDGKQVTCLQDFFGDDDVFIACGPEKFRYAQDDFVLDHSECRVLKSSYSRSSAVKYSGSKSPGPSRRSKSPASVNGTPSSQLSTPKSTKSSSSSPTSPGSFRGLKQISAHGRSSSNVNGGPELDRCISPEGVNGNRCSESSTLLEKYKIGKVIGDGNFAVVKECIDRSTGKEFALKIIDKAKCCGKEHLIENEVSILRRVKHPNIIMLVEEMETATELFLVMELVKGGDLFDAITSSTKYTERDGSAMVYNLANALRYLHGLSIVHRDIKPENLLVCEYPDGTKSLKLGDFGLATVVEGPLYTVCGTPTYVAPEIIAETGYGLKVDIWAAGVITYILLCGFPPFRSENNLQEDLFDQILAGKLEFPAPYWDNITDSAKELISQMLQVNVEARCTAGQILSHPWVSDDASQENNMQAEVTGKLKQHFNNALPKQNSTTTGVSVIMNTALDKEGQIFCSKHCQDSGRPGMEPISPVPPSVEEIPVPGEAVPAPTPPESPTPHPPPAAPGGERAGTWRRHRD
Sequence of UniProt P21802 (whole entry, looked up): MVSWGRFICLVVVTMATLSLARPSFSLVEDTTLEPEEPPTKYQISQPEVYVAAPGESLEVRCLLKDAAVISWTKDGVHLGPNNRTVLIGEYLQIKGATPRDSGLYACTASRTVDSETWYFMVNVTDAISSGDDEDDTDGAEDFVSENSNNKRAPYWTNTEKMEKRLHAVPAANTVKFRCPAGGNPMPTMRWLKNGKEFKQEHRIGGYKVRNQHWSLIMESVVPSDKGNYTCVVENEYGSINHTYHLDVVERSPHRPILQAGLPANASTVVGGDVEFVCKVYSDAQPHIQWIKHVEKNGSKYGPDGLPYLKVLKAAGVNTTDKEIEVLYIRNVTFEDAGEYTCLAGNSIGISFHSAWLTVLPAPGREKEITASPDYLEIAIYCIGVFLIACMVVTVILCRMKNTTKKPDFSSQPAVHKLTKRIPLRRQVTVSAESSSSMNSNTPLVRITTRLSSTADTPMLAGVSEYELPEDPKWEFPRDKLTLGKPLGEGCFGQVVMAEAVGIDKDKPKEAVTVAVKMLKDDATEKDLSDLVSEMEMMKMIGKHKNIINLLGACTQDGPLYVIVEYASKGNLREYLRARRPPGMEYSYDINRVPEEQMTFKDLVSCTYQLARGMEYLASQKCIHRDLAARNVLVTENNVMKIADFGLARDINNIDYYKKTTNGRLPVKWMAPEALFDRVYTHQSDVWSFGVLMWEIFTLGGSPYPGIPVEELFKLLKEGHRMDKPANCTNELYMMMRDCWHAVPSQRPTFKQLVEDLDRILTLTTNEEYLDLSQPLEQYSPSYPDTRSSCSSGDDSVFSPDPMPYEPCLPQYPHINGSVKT
Sequence of UniProt P57078 (whole entry, looked up): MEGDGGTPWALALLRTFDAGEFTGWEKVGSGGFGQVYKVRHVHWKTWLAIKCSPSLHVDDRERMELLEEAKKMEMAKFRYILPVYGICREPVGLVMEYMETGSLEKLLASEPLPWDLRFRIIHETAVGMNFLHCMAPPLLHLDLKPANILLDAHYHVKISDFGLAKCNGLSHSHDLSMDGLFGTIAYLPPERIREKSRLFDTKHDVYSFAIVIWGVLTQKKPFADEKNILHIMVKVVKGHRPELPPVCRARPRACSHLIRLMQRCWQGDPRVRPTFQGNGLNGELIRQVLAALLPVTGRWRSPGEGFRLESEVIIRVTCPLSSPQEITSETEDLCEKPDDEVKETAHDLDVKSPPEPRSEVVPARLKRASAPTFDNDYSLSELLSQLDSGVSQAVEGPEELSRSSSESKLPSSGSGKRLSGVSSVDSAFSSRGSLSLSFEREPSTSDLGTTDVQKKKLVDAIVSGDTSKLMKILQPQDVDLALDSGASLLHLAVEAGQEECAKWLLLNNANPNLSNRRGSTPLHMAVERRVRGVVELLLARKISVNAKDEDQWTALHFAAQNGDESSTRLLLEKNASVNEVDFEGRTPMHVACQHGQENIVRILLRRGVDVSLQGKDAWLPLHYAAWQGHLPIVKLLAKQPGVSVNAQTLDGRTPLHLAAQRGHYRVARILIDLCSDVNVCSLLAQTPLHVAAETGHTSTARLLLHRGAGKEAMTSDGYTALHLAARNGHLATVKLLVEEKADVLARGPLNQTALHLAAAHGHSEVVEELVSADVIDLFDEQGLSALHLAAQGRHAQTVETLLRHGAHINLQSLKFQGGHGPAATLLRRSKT
Sequence of UniProt P45984 (whole entry, looked up): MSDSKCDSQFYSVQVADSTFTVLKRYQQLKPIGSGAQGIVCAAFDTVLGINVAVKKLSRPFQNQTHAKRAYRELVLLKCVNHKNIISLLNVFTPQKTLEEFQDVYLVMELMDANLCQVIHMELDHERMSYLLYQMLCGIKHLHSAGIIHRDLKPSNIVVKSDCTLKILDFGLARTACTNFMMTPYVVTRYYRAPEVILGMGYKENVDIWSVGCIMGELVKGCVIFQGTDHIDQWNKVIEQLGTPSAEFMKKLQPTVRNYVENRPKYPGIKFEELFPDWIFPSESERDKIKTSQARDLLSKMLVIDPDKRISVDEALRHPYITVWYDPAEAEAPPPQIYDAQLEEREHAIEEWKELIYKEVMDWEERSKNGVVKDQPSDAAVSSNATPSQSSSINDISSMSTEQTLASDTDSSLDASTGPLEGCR
Sequence of UniProt Q96PF2 (whole entry, looked up): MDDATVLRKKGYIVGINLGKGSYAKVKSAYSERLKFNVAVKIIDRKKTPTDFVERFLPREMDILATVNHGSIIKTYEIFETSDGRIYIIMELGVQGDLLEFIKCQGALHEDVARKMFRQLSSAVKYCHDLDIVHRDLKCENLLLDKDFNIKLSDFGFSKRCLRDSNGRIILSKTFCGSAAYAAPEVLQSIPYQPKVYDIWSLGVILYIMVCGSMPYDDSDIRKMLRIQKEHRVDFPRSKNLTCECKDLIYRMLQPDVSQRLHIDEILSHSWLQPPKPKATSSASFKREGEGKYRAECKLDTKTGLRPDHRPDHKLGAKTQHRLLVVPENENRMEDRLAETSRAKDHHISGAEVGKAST
Sequence of UniProt Q5VT25 (whole entry, looked up): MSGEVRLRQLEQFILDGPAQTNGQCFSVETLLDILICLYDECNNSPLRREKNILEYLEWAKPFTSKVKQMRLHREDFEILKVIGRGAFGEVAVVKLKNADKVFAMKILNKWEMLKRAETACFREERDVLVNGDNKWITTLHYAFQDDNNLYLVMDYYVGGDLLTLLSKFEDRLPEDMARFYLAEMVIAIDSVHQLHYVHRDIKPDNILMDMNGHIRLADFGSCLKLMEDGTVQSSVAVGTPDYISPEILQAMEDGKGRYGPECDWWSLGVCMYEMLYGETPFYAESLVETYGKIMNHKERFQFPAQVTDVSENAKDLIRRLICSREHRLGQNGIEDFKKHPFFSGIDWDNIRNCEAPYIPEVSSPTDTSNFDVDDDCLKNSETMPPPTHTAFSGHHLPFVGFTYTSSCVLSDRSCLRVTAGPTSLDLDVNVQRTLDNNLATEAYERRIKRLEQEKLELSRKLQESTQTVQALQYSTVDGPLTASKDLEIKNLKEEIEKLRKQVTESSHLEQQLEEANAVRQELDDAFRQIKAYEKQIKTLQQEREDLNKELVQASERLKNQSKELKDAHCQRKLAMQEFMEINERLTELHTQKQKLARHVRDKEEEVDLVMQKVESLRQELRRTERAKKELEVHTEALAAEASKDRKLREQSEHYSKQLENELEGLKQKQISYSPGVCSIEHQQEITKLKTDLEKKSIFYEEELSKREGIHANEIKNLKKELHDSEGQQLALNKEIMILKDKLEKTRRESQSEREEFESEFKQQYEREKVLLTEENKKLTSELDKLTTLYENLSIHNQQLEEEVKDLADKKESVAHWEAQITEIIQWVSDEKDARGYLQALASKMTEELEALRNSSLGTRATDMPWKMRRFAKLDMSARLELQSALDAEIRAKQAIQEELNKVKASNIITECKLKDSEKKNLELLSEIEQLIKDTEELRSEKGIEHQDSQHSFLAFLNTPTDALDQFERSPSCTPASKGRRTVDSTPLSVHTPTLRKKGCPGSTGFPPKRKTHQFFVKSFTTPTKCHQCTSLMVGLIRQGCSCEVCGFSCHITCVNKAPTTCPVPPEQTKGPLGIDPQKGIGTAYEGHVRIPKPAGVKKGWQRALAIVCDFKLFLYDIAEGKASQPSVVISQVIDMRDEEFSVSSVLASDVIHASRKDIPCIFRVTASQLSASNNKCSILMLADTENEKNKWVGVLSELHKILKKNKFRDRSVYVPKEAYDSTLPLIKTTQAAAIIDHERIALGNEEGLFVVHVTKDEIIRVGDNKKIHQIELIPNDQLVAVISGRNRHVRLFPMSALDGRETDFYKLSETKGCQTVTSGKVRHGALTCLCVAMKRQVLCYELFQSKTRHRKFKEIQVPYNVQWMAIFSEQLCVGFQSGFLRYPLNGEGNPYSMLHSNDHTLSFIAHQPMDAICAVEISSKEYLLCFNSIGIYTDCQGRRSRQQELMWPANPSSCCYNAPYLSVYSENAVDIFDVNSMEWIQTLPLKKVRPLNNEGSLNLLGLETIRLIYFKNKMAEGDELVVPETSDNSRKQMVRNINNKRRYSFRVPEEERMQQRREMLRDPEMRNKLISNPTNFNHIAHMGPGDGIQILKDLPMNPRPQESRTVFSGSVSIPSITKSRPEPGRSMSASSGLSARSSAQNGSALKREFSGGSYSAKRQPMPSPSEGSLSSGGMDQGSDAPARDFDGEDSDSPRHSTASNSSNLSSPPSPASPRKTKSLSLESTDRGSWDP

COc1cc(Nc2ncc3c(n2)-c2ccc(Cl)cc2C(c2c(F)cccc2OC)=NC3)ccc1C(=O)O
remaining activity (PRKCH; kinase activity; 1 µM): 108%

Cc1cc(NC(=O)c2cccc(NC(=O)/C=C/CN(C)C)c2)ccc1Nc1nccc(-c2cccnc2)n1
remaining activity (Mitogen-activated protein kinase 9 (MAPK9, Homo sapiens, UniProt P45984); enzyme activity, inhibitor; 0.1829 µM, unit not given; reference: vehicle): 0.16

COc1cc(N2CCN(C)CC2)ccc1Nc1nc(N)n(C(=S)NCc2c(Cl)cccc2Cl)n1
remaining activity (Serine/threonine-protein kinase MRCK alpha (CDC42BPA, Homo sapiens, UniProt Q5VT25); enzyme activity; 10 µM; reference: control): 18%

O=C(O)c1ccc(Nc2ncc3c(n2)-c2ccc(Cl)cc2C(c2c(F)cccc2F)=NC3)cc1
remaining activity (MAPK2(h); kinase activity; 1 µM): 96%

COc1cc(-c2cncc3c2CN(C)Cc2cc(N4CCNCC4)ccc2-3)cc(OC)c1OC
remaining activity (Serine/threonine-protein kinase DCLK2 (DCLK2, Homo sapiens, UniProt Q8N568); kinase activity; 1 µM, human enzyme, together with: ATP 10 µM; reference: DMSO control): 104%

C=CC(=O)N1CCC[C@@H](n2nc(-c3ccc(Oc4ccccc4)cc3)c3c(N)ncnc32)C1
remaining activity (Testis-specific serine/threonine-protein kinase 2 (TSSK2, Homo sapiens, UniProt Q96PF2); 1 µM): 32%

COc1ccc(F)cc1C(=O)NCc1ccc(-c2nn([C@@H](C)C(F)(F)F)c(N)c2C(N)=O)cc1
remaining activity (cAMP-dependent protein kinase catalytic subunit beta (PRKACB, Homo sapiens, UniProt P22694); kinase activity, inhibitor, HotSpot radiometric; 1000 nM, together with: ATP at Km): 95.5 ± 2.8%

O=C(NC1CCC1)c1ccc2nc(-c3cccc(NS(=O)(=O)NCCN4CCCCC4)c3)cn2c1
remaining activity (Receptor-interacting serine/threonine-protein kinase 4 (RIPK4, Homo sapiens, UniProt P57078); enzyme activity; 10 µM): 89%

COc1cc(F)ccc1-c1ncnc(Nc2cccc(C[S@](C)(=N)=O)c2)n1
remaining activity (Fibroblast growth factor receptor 2 (FGFR2, Homo sapiens, UniProt P21802); kinase activity; 10 µM, together with: 10 µM ATP): 87%

Excerpt of the above:
COc1cc(N2CCN(C)CC2)ccc1Nc1nc(N)n(C(=S)NCc2c(Cl)cccc2Cl)n1
remaining activity (Serine/threonine-protein kinase MRCK alpha (CDC42BPA, Homo sapiens, UniProt Q5VT25); enzyme activity; 10 µM; reference: control): 18%
